Experimental data of several laboratories.
Numbered parts are unrelated; each lists some results of a single study. Substitutions count along the parent as printed.

Study 1
Target: Histone acetyltransferase KAT6A, winged helix 1, GST fusion (KAT6A, Homo sapiens, UniProt Q92794, residues 1-85)
Method: protein binding microarray
Form: double-stranded DNA, one strand shown
Matrix: in vitro
Tested at: not given
Notes: 8-mer, flanks averaged, mean of 2 arrays, mostly near background
Reference: not given
Reading: higher = stronger binding
Endpoint: E-score
Residues (chain): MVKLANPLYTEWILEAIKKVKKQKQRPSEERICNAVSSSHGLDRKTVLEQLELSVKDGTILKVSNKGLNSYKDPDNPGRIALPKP
GACGACAC: 0.0105
GGATGGGA: -0.274
ACCGCCTA: 0.223
ACAGTAGC: 0.0578
AGGTCCGA: 0.0276
AGTTCATC: -0.2
CCCGTCGA: 0.286
AGATACCC: 0.0128
ACGGACAA: 0.203
GAAGAATC: -0.0289
ACCGCCAA: -0.00626
ACTGATCA: -0.117
CCCCGGAG: 0.05
CCATGATA: -0.111
ACCTATGG: -0.103
ACCTGATC: -0.0775
CGCCGCAA: 0.386
CGACGAGC: 0.0225
ACCGTACT: 0.186
CCACCGGA: 0.134
ACCATACG: 0.108
AATGAATT: -0.221
CGACGTAC: -0.0669
CGGTAATA: 0.219
GTATAAAA: 0.173

Study 2
Target: CCNB2, cyclin fold, Cln2 fusion (human)
Method: yeast growth competition, sequencing
Matrix: yeast
Notes: weak parent motif
Reference: not given
Reading: higher = stronger binding
Endpoint: normalised enrichment score
Starting sequence: LLGL2 docking peptide (human); KSLKKSLRQSFRR
KSLKASLRQSFRR [K5A]: 0.696
KSLKKSLRQSFAR [R12A]: 0.784
KSLKKSLRASFRR [Q9A]: 1.13
KSLAKSLRQSFRR [K4A]: 0.583
KSLKKALRQSFRR [S6A]: -0.279
KSLKKSARQSFRR [L7A]: 0.631

Study 3
Target: RING finger protein unkempt homolog, zinc fingers 1-6, GST-SBP tag (UNK, Homo sapiens, UniProt Q9C0B0, residues 30-357)
Sequence of UniProt Q9C0B0 (30-357, looked up): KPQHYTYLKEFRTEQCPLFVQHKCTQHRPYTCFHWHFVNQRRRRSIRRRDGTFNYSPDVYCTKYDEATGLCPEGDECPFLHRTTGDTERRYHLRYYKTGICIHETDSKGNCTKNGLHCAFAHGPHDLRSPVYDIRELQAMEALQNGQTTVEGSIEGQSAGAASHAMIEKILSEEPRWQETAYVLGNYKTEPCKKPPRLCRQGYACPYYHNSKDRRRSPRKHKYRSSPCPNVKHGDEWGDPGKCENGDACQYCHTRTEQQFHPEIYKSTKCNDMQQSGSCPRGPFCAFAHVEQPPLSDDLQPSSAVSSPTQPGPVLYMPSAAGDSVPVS
Method: RNA Bind-n-Seq
Form: RNA
Matrix: in vitro
Tested at: not given
Notes: RNA with constant flanks, human-mouse chimeric sites, ends assumed
Reference: input RNA pool
Reading: higher = stronger binding
Endpoint: bound/input enrichment
Shared flanks, not repeated: GGGAGUUCUACAGUCCGACGAUC … CAACAGAGGAUUGAGCAUCA
UGUGCAUAUGAUGCUUGAGAUGGUUUUUGCAGAUGCAGAAAUCGCUGCAAGGUAAUCACAAUAGAUACAAGCGGUAUUUUAAACCUUUGAAAUAAAUGGAUGUAACUGUACCUUGGUACA: 0.222 ratio
CUUAAUGUUAAUAUUUUUGAAUAAAUGUAAAACCAUGGUCUGCUUUUGGUACAACACGCAUUAAUAAAAGGUUAAGUUUUGUUUUCCACUGAAGUACUAUUUAACAUACAUCUCAGAAAC: 0.195 ratio
UUCAAAGAAAAGGGCAGCUGUGUCAUUUCAUAAGUAAAACUGCAUCCGGGAAAUUCUAACUAGUUUGUUAAUUUUCCCCCAAAUGAAGCCAAAGUGUGUGUUGAAGAACUGAGAAAAAAU: 0.321 ratio
UCUGGUCACACUCGUGUGUAUGGUGUUUGCUUUGUGGACACUUCACUGGGCAAGUUUUUCAUCGGCCAGUUUUCGGAUGAUCGCCAUUGUUCCAGAUUUAGGACGCUAGUGGCUCACUAU: 0.294 ratio
GGUGGGGUGGUCAUUGCCGUUUGAGCUGCUGAUUUUCAUGAGUCGCCUUCAAAACUCUCGUGUAGGGUUGACAAUGUGGGGGGGUGGGAAAUCUAGCUAUUUUUUUUAUUUUCAAGUCCA: 170 ratio
GUAAUGGACGUCAACACUGCUCUACAAGAGGUUCUGAAGACUGCCCUCAUCCACGAUGGCCUAGCACGUGGCAUACGCGAAGCUGCCAAAGCCUUAGACAAGCGCCAAGCCCAUCUGUGU: 0.149 ratio
GAUCCACAGUGGUCUGAGGAGCAACUCAUUGCUGCAAAAUUCUGUUUUGCUGGACUUGUUAUAGGGCAGACUGAAGUGGACAUCAUGAGUCAUGCCACACAAGCUAUAUUUGAAAUACUG: 0.182 ratio
GUGACUGGUGUUAAGAUUUCCCCUCAGAAAAGAACUGCAGUAGUCACAAUAAUCCCUUCUGUGGUGAGUGCCAGUCAGAUUGUGGAGCUGGUCCCAGACCUCAGUUUAGACAUGGGAACU: 0.213 ratio
UAAAUUAGCCAGCACCAUUUCUGUUUCUCCCUGGGCUGCGGAAAGCCAGAAGAUUUUAUCUAGCUUAUACAAGGCUGCUGGUGUUCCCUCCCUCCCGCCACGAGGGUGUUUUUGGCUGCA: 0.791 ratio
GAGUCGAGCAAACUUGAAACAAUUCGUUAUCUUGCAGCCUCAGUGUUCACUUGCUUGGCGAUAGCAUUGGGGUUUUAUAGGUUCUGGAAGGAGAACUUUAAUGCUCAUCCUGCUGUGUGC: 0.299 ratio

Study 4
Target: RNA binding protein fox-1 homolog 2, RRM domain, GST-SBP tag (RBFOX2, Homo sapiens, UniProt O43251-10, residues 100-194)
Method: RNA Bind-n-Seq
Form: RNA
Matrix: in vitro
Tested at: 365 nM
Notes: natural RNA segment, single round, ends assumed
Reference: no-protein control
Reading: higher = stronger binding
Endpoint: RBNS enrichment (R)
Shared flanks, not repeated: GGGAGUUCUACAGUCCGACGAUC … UGGAAUUCUCGGGUGCCAA
Target sequence (chain): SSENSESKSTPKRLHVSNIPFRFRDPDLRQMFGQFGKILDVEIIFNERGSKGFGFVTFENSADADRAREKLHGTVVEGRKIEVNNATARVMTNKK
ACAGGGAAAUUUUGGGGUGGGAGUAAAAGCAAAUUUGGAAAAUAAACUUUUUUUUGUUGAAUCUUUUCUGAUCUGGAUUUUCCAUUCUUGCUAUGGCUGCCUCUUGUAAC: 0.805
CAGAAGGAGGCCCUGGCUGCUCCAGCUUGGGUGGAGCCUACUGAAAUGUGGAAACUGUGUAUCUUAUAGAGCCUCCUCUCGUCCUACUCAUCCCUCAGCAGAAAAAUGUG: 0.97
AGCUCGUCCCUUGGACUAGAGUCUCCACAGUUCCAGUAAAAUUCUGCGGUGGGCUGAUGAGCUGCUUGCAUUUCUGUGACAUUUCCAGAUAUGAUUCUCAGUGGGAUUUU: 0.389
GAAUGGUGGGGUUCUAGCUUGGUCACUUUCAUUUCUUGCCAUCAUAAAAACUAGUAGGCUGUGGAGUGCGCUUCCUGUUUGUGUCAUCUGGUCGUAGAACCUUUUCCAAA: 0.482
UUGCCACCACCGUCACUCAGCCCUGGGCGUAGCCGGACAGGAGGAGAGCAGUGAUGCGGAUGGGUACCCGGGCACACCAGCCCUCAGAGACCUGAGCUCUUCUGGCCACG: 0.281
UAGUGACAUGUACACAGUAGAUGCUCAAGCAGUGUCUGCAAGGACACAAGCUGAGCUUUCUCCUUAUGGGGCAAACCUAUGUCUAACCAGAUACAGACCAAUUAGUUUAG: 0.207
UAAAUUGUCAUAAACAUUCUAGGAAGUUCAAGAAAAUGAUGCAGUACCCAGCACAUGAAAGACCUACAACAUGUGCUUGCCAAAGGAAUGUUAGAAUCUGCUCAUGUGUG: 1.74
UUUAUUUGUAUGUUGAAUGUACAGAUUCAUUUCAAGAAAAGCAUGAAGAUAAUGAAAGCAAAUAUGUAACAAUACAAGUAGGGACUUUAGAGCUUCUAUUUGGGUUAAAA: 15.9
CCAGGUCUUACAGCAUUUUAUAUAUCACAUCUUUACAGAAUAACAUGAUGGCAAUAUACAAGUGGUAUUGUUAGGUGGUUUAACUUAGAAUAAAAUGAGAAUUCUUCAGU: 0.868
AGGGACGAGUUUACGAUGGCUUGUGUAGUAAAGCGCACCCUUCGCCUGUCGCUACCUGGGGCUGUGGCAGCGGAAGUGUUUAGUGACAAGUGGGUCUGGGCAGCUUCCCC: 0.802
GUGUGCAGGCAUCGCAGAUGGGGGUUCUUUCAGUUCAAAAGUGAGAUGUCUGGAGAUCAUAUUUUUUUAUACAGGUAUUUCAAUUAAAAUGUUUUUGUACAUAGUGGAUA: 0.677
UGAGACAUAAAUGUUCACUUUAAAGCAAUUGCAUAAUAGAUAAAAACCUGAACUUUCAUUGGAUUUUUGUUAAUUUUCCUCAUUUUGAAUUAUGUGCACUACCAUAGCUA: 1.27

Study 5
Target: Sal-like protein 4, full length isoform A (SALL4, Homo sapiens, UniProt Q9UJQ4, residues 1-1053)
Sequence of UniProt Q9UJQ4 (whole entry, looked up): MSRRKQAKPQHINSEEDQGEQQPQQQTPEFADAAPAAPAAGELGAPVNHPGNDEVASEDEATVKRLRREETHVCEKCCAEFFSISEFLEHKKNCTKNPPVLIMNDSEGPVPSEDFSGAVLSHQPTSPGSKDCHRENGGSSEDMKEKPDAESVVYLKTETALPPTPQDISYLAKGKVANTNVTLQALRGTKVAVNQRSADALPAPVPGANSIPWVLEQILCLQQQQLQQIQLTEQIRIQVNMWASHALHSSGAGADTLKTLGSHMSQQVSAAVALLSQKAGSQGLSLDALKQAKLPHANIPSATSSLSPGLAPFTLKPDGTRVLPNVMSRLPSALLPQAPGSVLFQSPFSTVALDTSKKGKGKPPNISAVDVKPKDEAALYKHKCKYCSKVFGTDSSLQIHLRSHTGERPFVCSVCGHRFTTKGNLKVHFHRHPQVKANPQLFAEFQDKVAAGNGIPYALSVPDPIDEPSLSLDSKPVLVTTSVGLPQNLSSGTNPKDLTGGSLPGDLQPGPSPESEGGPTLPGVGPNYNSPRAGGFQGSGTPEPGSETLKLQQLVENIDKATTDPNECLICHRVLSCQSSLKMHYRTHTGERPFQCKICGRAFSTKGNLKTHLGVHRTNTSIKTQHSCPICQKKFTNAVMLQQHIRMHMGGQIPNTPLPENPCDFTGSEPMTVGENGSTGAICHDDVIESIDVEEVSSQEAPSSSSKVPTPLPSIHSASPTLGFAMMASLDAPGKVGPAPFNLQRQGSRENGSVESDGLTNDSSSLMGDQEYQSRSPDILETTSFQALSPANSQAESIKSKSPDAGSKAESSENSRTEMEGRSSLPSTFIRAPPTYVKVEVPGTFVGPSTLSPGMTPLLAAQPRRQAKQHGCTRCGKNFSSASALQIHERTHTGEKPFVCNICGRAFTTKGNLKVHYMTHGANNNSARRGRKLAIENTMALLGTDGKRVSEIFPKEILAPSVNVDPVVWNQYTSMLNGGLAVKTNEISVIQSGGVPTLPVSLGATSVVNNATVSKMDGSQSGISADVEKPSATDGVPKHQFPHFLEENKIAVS
Method: universal PBM
Form: double-stranded DNA, one strand shown
Matrix: in vitro
Tested at: 600 nM
Notes: 8-mer, flanks averaged, mean of replicates
Reading: higher = stronger binding
Endpoint: E-score
AATCACTG: 0.0318
ACTCTTCG: -0.0826
CCCAGAGC: -0.304
AGGATTAA: 0.171
CATAGCCG: -0.014
CACCTCGC: -0.218
TGATAGAA: 0.15
GTCCATAA: 0.15
AGACAAAC: -0.0513
AGGGTTCC: -0.168
ATAGATCG: 0.0429
AAATTTCT: 0.248
CTCTGGAA: -0.0748
GTAGGGTA: 0.0994
GACAGCTA: 0.0547
CCCGCATA: 0.0575
CAAAAAAC: 0.187
CTAGTTGC: -0.0239
CTCCTTCC: -0.141
ATGAACAC: 0.213
TCGTCTCA: -0.0641
CTTACTTA: 0.082
CGGCCTTC: -0.259
TGCAAGAA: 0.0998
AGATTCCC: -0.199

Study 6
Target: Transcriptional repressor CTCF (CTCF, Homo sapiens, UniProt P49711, residues 1-727, full length assumed)
Sequence of UniProt P49711 (whole entry, looked up): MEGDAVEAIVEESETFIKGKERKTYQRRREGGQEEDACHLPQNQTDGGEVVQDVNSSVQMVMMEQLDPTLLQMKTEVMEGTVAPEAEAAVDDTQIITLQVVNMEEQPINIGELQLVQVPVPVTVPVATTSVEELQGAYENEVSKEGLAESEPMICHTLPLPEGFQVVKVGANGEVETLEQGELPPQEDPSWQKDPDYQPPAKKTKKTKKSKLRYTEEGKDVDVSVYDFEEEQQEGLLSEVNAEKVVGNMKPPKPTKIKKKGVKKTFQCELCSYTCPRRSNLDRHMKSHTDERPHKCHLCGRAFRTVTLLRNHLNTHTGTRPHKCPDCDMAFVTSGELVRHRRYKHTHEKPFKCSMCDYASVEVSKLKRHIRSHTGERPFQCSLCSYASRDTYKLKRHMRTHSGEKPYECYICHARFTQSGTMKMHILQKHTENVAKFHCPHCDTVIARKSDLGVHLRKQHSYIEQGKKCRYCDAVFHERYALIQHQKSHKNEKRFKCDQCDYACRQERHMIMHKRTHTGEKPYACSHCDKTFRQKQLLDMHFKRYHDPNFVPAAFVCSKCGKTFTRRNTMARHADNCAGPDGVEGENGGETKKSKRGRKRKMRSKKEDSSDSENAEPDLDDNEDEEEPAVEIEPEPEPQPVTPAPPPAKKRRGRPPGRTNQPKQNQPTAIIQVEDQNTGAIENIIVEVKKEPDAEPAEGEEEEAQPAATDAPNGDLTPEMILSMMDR
Method: protein-binding microarray
Form: double-stranded DNA, one strand shown
Matrix: in vitro
Tested at: not given
Notes: k-mer, scored over probes, only values ≥0.25
Reading: higher = stronger binding
Endpoint: E-score
AACAGCGC: 0.346
GTATTTAA: 0.283
AACATATT: 0.262
AACGATAT: 0.257
CATGCGCC: 0.298
CGCGCAAA: 0.397
GTATGCGA: 0.27
ATGCGCTA: 0.328
GATTACGC: 0.287
ATATTCAA: 0.253
ATAATCTA: 0.268

A few entries again (study 2):
KSLKASLRQSFRR [K5A]: 0.696
KSLKKSLRQSFAR [R12A]: 0.784
KSLKKSLRASFRR [Q9A]: 1.13
KSLAKSLRQSFRR [K4A]: 0.583
KSLKKALRQSFRR [S6A]: -0.279
KSLKKSARQSFRR [L7A]: 0.631
